Measurements collected from several papers.
Protocols differ between the studies behind these lines. Numbers after ± are the reported error.
CYP3A4: Cytochrome P450 3A4 (CYP3A4, Homo sapiens, UniProt P08684)
Chain of UniProt P08684 (whole entry, looked up): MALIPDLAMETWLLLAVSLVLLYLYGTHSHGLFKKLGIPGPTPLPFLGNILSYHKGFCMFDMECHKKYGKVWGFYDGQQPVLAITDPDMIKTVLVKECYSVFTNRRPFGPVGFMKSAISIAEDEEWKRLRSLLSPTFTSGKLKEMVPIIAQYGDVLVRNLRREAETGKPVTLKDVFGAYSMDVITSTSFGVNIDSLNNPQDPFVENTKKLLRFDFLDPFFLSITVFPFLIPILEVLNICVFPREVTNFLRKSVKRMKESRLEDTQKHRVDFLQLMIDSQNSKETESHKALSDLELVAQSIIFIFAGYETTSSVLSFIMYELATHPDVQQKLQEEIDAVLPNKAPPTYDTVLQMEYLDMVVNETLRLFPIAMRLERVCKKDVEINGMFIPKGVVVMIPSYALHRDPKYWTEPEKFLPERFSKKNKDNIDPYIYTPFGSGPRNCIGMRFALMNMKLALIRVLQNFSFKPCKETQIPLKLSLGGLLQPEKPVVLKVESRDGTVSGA
Chain of UniProt P61073 (whole entry, looked up): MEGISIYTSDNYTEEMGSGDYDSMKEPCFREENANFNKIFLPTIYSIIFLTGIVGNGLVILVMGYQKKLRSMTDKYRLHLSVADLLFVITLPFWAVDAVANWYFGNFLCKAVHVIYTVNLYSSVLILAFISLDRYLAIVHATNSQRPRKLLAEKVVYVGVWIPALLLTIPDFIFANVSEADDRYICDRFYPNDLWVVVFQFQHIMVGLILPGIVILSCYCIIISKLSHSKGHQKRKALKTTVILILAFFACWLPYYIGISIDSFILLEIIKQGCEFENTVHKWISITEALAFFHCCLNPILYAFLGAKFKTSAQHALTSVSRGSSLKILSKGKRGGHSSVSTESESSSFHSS
Chain of UniProt Q9NPD5 (whole entry, looked up): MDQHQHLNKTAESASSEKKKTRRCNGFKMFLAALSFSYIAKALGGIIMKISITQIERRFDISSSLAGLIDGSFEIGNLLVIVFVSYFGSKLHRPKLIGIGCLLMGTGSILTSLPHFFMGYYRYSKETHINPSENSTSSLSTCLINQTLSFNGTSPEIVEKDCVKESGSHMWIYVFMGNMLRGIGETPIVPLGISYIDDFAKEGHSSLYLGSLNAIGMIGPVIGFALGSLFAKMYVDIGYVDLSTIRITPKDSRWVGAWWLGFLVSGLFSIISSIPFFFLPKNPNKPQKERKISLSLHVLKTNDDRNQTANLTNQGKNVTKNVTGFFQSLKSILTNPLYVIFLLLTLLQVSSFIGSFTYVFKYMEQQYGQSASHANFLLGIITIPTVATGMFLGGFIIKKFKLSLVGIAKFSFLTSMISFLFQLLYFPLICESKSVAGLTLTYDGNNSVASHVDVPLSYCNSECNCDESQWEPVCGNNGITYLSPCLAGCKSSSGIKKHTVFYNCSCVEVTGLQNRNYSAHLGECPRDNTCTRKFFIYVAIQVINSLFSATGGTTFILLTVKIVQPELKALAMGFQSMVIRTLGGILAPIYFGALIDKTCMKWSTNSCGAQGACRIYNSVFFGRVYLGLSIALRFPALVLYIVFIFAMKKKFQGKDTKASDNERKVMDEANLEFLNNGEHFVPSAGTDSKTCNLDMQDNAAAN
Chain of UniProt P08835 (whole entry, looked up): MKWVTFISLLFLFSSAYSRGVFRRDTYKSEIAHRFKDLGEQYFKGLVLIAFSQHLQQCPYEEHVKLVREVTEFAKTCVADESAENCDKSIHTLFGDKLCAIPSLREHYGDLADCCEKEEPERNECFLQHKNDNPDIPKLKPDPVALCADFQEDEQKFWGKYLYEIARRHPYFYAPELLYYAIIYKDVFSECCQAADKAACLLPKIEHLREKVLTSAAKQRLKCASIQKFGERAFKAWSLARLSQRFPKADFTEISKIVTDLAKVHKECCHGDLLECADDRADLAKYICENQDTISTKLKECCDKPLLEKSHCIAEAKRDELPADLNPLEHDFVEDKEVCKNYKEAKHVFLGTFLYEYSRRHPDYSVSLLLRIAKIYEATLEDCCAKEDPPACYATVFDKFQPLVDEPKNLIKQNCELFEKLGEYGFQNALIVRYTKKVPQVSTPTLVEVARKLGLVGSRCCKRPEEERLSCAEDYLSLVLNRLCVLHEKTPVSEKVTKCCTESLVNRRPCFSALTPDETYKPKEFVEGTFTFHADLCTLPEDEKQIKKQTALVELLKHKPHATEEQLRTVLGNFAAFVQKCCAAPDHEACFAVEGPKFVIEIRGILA
Chain of UniProt Q9UNQ0 (whole entry, looked up): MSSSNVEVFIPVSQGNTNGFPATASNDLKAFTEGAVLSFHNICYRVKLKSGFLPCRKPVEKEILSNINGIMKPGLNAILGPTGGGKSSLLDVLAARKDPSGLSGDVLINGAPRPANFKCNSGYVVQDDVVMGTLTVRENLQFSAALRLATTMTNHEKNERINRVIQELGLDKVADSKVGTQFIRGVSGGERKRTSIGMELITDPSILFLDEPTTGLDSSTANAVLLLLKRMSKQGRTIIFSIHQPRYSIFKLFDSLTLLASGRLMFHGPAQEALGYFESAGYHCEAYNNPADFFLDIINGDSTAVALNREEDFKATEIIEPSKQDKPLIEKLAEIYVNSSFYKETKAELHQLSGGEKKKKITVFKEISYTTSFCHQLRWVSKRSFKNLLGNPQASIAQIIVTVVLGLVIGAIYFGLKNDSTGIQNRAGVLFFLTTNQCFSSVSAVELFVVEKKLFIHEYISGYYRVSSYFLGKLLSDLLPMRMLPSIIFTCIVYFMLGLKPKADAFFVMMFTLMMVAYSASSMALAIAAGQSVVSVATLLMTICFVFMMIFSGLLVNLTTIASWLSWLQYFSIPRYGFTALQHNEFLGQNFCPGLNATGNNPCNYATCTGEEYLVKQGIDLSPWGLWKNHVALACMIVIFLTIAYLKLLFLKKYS
Chain of UniProt O15439 (whole entry, looked up): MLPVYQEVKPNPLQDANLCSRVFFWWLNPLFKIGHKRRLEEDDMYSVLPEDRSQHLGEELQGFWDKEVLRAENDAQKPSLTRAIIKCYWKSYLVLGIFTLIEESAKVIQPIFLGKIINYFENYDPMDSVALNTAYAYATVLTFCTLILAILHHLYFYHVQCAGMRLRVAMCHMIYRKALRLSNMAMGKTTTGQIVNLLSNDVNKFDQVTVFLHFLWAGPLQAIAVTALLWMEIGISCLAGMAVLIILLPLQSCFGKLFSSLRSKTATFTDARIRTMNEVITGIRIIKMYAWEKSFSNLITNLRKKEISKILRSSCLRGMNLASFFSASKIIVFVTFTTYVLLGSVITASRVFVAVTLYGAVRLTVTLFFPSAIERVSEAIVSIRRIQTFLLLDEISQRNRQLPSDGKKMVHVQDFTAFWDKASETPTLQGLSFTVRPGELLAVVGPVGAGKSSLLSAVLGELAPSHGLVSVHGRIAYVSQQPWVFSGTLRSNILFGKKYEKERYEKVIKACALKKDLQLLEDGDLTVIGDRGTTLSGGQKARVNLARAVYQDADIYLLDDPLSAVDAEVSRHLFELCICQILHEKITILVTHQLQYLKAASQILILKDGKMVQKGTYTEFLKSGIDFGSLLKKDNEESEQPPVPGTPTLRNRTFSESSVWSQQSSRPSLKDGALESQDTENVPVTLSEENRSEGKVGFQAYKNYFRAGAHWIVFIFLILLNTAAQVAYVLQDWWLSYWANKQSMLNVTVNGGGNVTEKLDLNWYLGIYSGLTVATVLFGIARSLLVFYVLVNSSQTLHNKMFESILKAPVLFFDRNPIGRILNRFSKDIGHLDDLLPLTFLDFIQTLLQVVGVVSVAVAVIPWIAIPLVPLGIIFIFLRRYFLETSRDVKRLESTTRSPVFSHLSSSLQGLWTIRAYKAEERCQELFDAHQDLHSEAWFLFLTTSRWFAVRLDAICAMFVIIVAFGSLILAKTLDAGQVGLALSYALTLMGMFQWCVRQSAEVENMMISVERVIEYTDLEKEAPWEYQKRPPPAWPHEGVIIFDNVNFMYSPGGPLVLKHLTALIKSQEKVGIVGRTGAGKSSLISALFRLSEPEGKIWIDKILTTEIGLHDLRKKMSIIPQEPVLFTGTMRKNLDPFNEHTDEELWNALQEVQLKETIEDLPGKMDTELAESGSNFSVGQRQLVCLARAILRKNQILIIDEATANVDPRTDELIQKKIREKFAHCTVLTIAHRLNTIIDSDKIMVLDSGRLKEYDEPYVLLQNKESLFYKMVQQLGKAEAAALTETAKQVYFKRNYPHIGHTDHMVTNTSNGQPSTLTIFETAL

| SMILES | target | test | test system | conditions | scale | endpoint | value |
| --- | --- | --- | --- | --- | --- | --- | --- |
| O=C(O)Cc1cccc(OC(=O)NCCCCCn2ccc3ccc(F)cc32)c1 | Albumin (ALB, Sus scrofa, UniProt P08835) |  | porcine protein solution 17.5 mg/mL in PBS | 20 µM, 0.5 h, 37 °C |  | remaining parent compound | > 95% |
| CNC(=O)Oc1cc(C)c([S+](C)[O-])c(C)c1 (stereo not drawn) | CYP3A4 | inhibitor |  | 10 µM, pH 7.4 |  | inhibition | 9.1% |
| N=C(N)NCCC[C@@H]1NC(=O)[C@H](CCCNC(=N)N)NC(=O)[C@H](CCCNC(=N)N)NC(=O)[C@H](CCCNC(=N)N)NC(=O)[C@H](Cc2c[nH]c3ccccc23)NC(=O)[C@H](CCCNC(=N)N)NC(=O)[C@H](CCCNC(=N)N)NC(=O)[C@@H](N)CCCn2cc(nn2)C[C@@H](C(N)=O)NC1=O | trypsin | substrate, HPLC |  | pH 7.4, 37 °C |  | complete degradation time | 85 to 110 min |
| O=C1Cc2cc(CCN3CCN(C4=NS(=O)(=O)c5ccccc54)CC3)c(Cl)cc2N1 | CYP3A4 | inhibitor |  | 2 µM, pH 7.4 |  | inhibition | < 0% |
| O=C(NC(CSC(Cc1ccccc1)C(=O)NCCCc1cccnc1)Cc1ccc(-c2ccccc2)cc1)c1cccnc1 (stereo not drawn) | CYP3A4 |  |  | 16 µM, 2 h, with: 10 mM H2O2 | reference: ligand-free enzyme | heme destroyed | 43% |
| CN1C(=O)[C@@H](Cc2ccc(O)cc2)NC(=O)CNC(=O)[C@H](Cc2ccc3ccccc3c2)NC(=O)[C@H](CCCNC(=N)N)NC(=O)[C@H]1CCCNC(=O)c1ccc(CNC(=O)CN2CCN(CC(=O)O)CCN(CC(=O)O)CCN(CC(=O)O)CC2)cc1 [gallium-68 labelled] | C-X-C chemokine receptor type 4 (CXCR4, Homo sapiens, UniProt P61073) | PET imaging | human, kidney |  |  | SUVmean | 5.06 |
| CC[C@H](C)[C@H](NC(=O)[C@H](C)NC(=O)[C@H](C)NC(=O)[C@H](C)NC(=O)[C@H](Cc1c[nH]cn1)NC(=O)[C@H](CCCCN)NC(=O)[C@H](C)NC(=O)[C@H](C)NC(=O)[C@H](C)NC(=O)[C@H](CCC(=O)O)NC(=O)[C@H](CCCCN)NC(=O)[C@H](C)NC(=O)[C@H](C)NC(=O)[C@H](C)NC(=O)[C@H](CCC(=O)O)NC(=O)[C@H](C)NC(C)=O)C(=O)N[C@@H](C)C(=O)N[C@@H](C)C(=O)N[C@@H](CS)C(=O)N[C@@H](C)C(N)=O | trypsin | proteolysis resistance |  | 4 °C, unit not given | reference: metal-free HCM | stability enhancement | 0.8 |
| CC(C)(O)c1ccccc1CC[C@H](c1cccc(/C=C/c2ccc3ccc(Cl)cc3n2)c1)S(=O)(=O)CC1(CC(=O)O)CC1 | CYP3A4 |  | human liver fractions | 1 µM, 30 min, pH 7.4 |  | metabolised | 17.2% |
| O=C(NC(CSC(Cc1ccccc1)C(=O)NCCCc1cccnc1)Cc1c[nH]c2ccccc12)c1cccnc1 (stereo not drawn) | CYP3A4 | enzyme activity, inhibitor |  |  |  | IC50 | 0.2 µM |
| N=C(N)NCCC[C@@H](NC(=O)[C@H](N)Cc1c[nH]c2ccccc12)C(=O)N[C@H](CCCCN)C(=O)N[C@H](Cc1c[nH]c2ccccc12)C(=O)N[C@H](CCCNC(=N)N)C(=O)N[C@H](CCCCN)C(=O)N[C@H](Cc1c[nH]c2ccccc12)C(=O)N[C@H](CCCNC(=N)N)C(=O)N[C@H](CCCCN)C(=O)N[C@H](Cc1c[nH]c2ccccc12)C(=O)N[C@H](CCCNC(=N)N)C(=O)N[C@H](CCCCN)C(N)=O | trypsin | RP-HPLC |  | 6 h, 37 °C |  | remaining peptide | > 90% |
| COc1ccc2cc(NC(=O)c3cc(-c4ccccn4)nc4ccccc34)ccc2c1 | CYP3A4 | enzyme activity, inhibitor |  |  |  | Ki | 94 µM |
| Cc1c(NC(=O)c2ccc3c(c2)CC[C@@H]2C[C@@](O)(C(F)(F)F)CC[C@@]32Cc2ccccc2)ccc[n+]1[O-] | CYP3A4/5, human | time-dependent inhibitor, refers to: 1'-hydroxymidazolam | pooled human liver microsomes | saturation not achieved, with: midazolam 23 µM |  | Ki | 4 µM |
| CC(CCC(=O)NCC(=O)O)C1CCC2C3CCC4CC(OC5OC(C(=O)O)C(O)C(O)C5O)CCC4(C)C3CC(O)C12C (stereo not drawn) | ATP-binding cassette sub-family C member 4 (ABCC4, Homo sapiens, UniProt O15439) | substrate, membrane vesicle uptake |  | 0.2 µM, 10 min | reference: ATP over AMP | vesicle uptake ratio | ~4 |
| Cc1cc(C)c(-c2cc(C)c(OP(=O)([O-])OCCC[C@H](C(=O)[O-])N3CCN(CC(=O)[O-])CCN(CC(=O)[O-])CCN(CC(=O)[O-])CC3)cc2C)c(C)c1.[Gd+3] | Albumin (ALB, Homo sapiens, UniProt P02768) | variable temperature NMRD | HSA-bound complex |  |  | ZFS modulation correlation time | 18 ps |
| CC(CCC(=O)NCC(=O)O)C1CCC2C3C(O)CC4CC(OC5OC(C(=O)O)C(O)C(O)C5O)CCC4(C)C3CCC12C (stereo not drawn) | Solute carrier organic anion transporter family member 1B3 (SLCO1B3, Homo sapiens, UniProt Q9NPD5) | substrate | transfected HEK293 cells | 1 µM, 2 min | reference: wild-type HEK293 cells | uptake ratio | 13.9 ± 0.4 |
| CC(C)(O)c1ccccc1CC[C@H](c1cccc(/C=C/c2ccc3ccc(Cl)cc3n2)c1)[S+]([O-])CC1(CC(=O)O)CC1 (stereo partly drawn) | CYP3A4 |  | human liver microsomes | 10 µM, pH 7.4, with: midazolam |  | inhibition | 48.6% |
| C=C1CCC2[C@](C)(CO)[C@H](O)CC[C@@]2(C)[C@@H]1/C=C/C1=CCOC1=O (stereo partly drawn) | Albumin (ALB, Homo sapiens, UniProt P02768) | HPLC-based | human plasma |  |  | fraction unbound | 0.07 |
| C=CCc1ccc(O)c(-c2cc(CC=C)cc(O)c2O)c1 | Broad substrate specificity ATP-binding cassette transporter ABCG2 (ABCG2, Homo sapiens, UniProt Q9UNQ0) | mitoxantrone transport, inhibitor |  | 10 µM, 30 min, with: mitoxantrone 5 µM | reference: Ko143 0.5 µM | inhibition | 2.5 ± 3.6% |
| CCN(CC)CCOc1ccc(-c2nnn(Cc3ccc(OC)cc3)c2N)cc1 | CYP3A |  |  | concentration not given |  | inhibition | no inhibition |
| [64Cu+2].c1ccc(CNCc2ccc(CN3CCCNCCNCCCNCC3)cc2)nc1 | CXCR4 |  | NOD/SCID mouse, U87 and U87-stb-CXCR4 xenografts, liver | iv, 90 min, no blocking dose, ex vivo |  | tissue uptake | 31.2 ± 1.49 %ID/g |
| Cc1cc(C)c(-c2cc(C)c(OP(=O)([O-])OCCC[C@H](C(=O)[O-])N3CCN(CC(=O)[O-])CCN(CP(=O)([O-])O)CCN(CC(=O)[O-])CC3)cc2C)c(C)c1.[Gd+3] | Albumin (ALB, Homo sapiens, UniProt P02768) | albumin binding, variable temperature NMRD fit | albumin-bound complex | 0.1 mM, pH 7.4, fit 5-35 °C data, with: HSA 0.66 mM |  | rotational correlation time | 7 ns |
| CCCS(=O)(=O)c1ccc2[nH]c(NC(=O)OC)nc2c1 | CYP3A4 |  | human liver microsomes | 2 µM, pH 7.4, with: midazolam |  | inhibition | < 0% |
| CC[C@H](C)[C@H](NC(=O)[C@H](CC(C)C)NC(=O)[C@H](CC(N)=O)NC(=O)CNC(=O)[C@H](CO)NC(=O)[C@H](CC(C)C)NC(=O)[C@@H](NC(=O)[C@H](CC(C)C)NC(=O)[C@H](CCC(N)=O)NC(=O)[C@H](CCC(N)=O)NC(=O)[C@H](CC(C)C)NC(=O)[C@H](CC(C)C)NC(=O)[C@H](CCCNC(=N)N)NC(=O)[C@H](Cc1c[nH]cn1)NC(=O)[C@@H]1CCCN1C(=O)[C@H](CC(=O)O)NC(C)=O)C(C)C)C(=O)N[C@@H](CCCCN)C(=O)N[C@@H](CCC(=O)O)C(=O)N[C@@H](C)C(=O)N[C@H](C(=O)N[C@@H](CCCNC(=N)N)C(=O)N[C@@H](CCCNC(=N)N)C(=O)N[C@@H](CC(C)C)C(=O)N[C@@H](Cc1c[nH]cn1)C(=O)N[C@@H](CO)C(=O)N[C@@H](CCCNC(=N)N)C(N)=O)C(C)C | Chymotrypsinogen A (Bos taurus, UniProt P00766) | proteolytic stability, substrate |  | 100 µM, pH 7.4, with: Chymotrypsinogen A 5 ng/mL |  | time to complete degradation | ≤ 2 h |
| CC(C)C[C@H](NC(=O)[C@H](C)NC(=O)[C@H](CC(C)C)NC(=O)[C@@H](NC(=O)CNC(=O)[C@H](CC(C)C)NC(=O)[C@@H](N)Cc1ccccc1)C(C)C)C(=O)N[C@@H](CC(C)C)C(=O)NCC(=O)N[C@@H](Cc1ccc(O)cc1)C(=O)N[C@@H](CC(C)C)C(=O)N[C@@H](C)C(=O)N[C@H](C(=O)N[C@@H](CCCNC(=N)N)C(=O)N1CCC[C@H]1C(=O)N[C@@H](Cc1ccccc1)C(=O)N[C@@H](CC(C)C)C(=O)N1CCC[C@H]1C(=O)N[C@@H](CCCCN)C(=O)N[C@@H](CCCCN)C(=O)N[C@@H](CCCCN)C(=O)N[C@@H](CCC(N)=O)C(=O)N[C@@H](CCC(N)=O)C(=O)N[C@@H](CCCCN)C(N)=O)C(C)C | chymotrypsin | proteolytic stability, analytical HPLC |  | 450 µM, 22 °C, with: chymotrypsin 0.001 mg/mL |  | time to full cleavage | 100 min |
